{"data": "Measurements of several laboratories", "ppa": "Inorganic pyrophosphatase (ppa, Escherichia coli, UniProt P0A7A9)", "NNMT": "Nicotinamide N-methyltransferase (NNMT, Homo sapiens, UniProt P40261)", "NTSR1": "Neurotensin receptor type 1 (NTSR1, Homo sapiens, UniProt P30989)", "PIK3CD": "Phosphatidylinositol 4,5-bisphosphate 3-kinase catalytic subunit delta isoform (PIK3CD, Homo sapiens, UniProt O00329)", "ADRB2": "Beta-2 adrenergic receptor (ADRB2, Homo sapiens, UniProt P07550)", "Uncharacterized protein": "Uncharacterized protein (Trypanosoma brucei brucei, UniProt Q386Q8)", "CYP2C19": "Cytochrome P450 2C19 (CYP2C19, Homo sapiens, UniProt P33261)", "Gria1": "Glutamate receptor 1 (Gria1, Rattus norvegicus, UniProt P19490)", "TDP1": "Tyrosyl-DNA phosphodiesterase 1 (TDP1, Homo sapiens, UniProt Q9NUW8)", "glpG": "Rhomboid protease GlpG (glpG, Escherichia coli, UniProt P09391)", "CACNA1C": "Voltage-dependent L-type calcium channel subunit alpha-1C (CACNA1C, Homo sapiens, UniProt Q13936)", "note": "Compare with care: the assays were run in different laboratories. Several values in a cell are separate wells, animals, samples, runs or records. ± marks the error that the study gave.", "UniProt P07550, sequence (whole entry, unmodified, looked up)": "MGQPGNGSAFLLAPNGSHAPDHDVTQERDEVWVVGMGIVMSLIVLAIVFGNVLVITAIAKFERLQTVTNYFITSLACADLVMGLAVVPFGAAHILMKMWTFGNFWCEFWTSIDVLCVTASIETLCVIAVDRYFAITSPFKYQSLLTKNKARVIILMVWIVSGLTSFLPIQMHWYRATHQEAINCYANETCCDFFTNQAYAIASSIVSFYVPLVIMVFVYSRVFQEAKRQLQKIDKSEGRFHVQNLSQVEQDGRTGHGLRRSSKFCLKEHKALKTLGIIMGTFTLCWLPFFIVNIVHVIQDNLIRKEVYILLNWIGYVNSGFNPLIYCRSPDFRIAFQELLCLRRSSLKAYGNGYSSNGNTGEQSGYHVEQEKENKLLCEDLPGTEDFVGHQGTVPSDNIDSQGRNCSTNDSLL", "UniProt P40261, sequence (whole entry, looked up)": "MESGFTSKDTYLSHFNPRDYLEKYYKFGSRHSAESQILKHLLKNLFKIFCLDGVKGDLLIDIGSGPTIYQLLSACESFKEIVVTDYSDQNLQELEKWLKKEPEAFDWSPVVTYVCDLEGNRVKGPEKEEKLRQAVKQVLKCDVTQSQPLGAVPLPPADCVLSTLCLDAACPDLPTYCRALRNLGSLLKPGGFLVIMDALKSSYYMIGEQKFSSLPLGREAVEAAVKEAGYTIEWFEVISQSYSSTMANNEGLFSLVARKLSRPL", "UniProt P0A7A9, sequence (whole entry, looked up)": "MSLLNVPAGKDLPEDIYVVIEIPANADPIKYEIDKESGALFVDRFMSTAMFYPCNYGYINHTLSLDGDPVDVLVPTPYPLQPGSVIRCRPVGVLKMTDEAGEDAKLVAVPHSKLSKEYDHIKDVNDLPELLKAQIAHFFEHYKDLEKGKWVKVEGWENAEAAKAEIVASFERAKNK", "UniProt Q13936, sequence (whole entry, looked up)": "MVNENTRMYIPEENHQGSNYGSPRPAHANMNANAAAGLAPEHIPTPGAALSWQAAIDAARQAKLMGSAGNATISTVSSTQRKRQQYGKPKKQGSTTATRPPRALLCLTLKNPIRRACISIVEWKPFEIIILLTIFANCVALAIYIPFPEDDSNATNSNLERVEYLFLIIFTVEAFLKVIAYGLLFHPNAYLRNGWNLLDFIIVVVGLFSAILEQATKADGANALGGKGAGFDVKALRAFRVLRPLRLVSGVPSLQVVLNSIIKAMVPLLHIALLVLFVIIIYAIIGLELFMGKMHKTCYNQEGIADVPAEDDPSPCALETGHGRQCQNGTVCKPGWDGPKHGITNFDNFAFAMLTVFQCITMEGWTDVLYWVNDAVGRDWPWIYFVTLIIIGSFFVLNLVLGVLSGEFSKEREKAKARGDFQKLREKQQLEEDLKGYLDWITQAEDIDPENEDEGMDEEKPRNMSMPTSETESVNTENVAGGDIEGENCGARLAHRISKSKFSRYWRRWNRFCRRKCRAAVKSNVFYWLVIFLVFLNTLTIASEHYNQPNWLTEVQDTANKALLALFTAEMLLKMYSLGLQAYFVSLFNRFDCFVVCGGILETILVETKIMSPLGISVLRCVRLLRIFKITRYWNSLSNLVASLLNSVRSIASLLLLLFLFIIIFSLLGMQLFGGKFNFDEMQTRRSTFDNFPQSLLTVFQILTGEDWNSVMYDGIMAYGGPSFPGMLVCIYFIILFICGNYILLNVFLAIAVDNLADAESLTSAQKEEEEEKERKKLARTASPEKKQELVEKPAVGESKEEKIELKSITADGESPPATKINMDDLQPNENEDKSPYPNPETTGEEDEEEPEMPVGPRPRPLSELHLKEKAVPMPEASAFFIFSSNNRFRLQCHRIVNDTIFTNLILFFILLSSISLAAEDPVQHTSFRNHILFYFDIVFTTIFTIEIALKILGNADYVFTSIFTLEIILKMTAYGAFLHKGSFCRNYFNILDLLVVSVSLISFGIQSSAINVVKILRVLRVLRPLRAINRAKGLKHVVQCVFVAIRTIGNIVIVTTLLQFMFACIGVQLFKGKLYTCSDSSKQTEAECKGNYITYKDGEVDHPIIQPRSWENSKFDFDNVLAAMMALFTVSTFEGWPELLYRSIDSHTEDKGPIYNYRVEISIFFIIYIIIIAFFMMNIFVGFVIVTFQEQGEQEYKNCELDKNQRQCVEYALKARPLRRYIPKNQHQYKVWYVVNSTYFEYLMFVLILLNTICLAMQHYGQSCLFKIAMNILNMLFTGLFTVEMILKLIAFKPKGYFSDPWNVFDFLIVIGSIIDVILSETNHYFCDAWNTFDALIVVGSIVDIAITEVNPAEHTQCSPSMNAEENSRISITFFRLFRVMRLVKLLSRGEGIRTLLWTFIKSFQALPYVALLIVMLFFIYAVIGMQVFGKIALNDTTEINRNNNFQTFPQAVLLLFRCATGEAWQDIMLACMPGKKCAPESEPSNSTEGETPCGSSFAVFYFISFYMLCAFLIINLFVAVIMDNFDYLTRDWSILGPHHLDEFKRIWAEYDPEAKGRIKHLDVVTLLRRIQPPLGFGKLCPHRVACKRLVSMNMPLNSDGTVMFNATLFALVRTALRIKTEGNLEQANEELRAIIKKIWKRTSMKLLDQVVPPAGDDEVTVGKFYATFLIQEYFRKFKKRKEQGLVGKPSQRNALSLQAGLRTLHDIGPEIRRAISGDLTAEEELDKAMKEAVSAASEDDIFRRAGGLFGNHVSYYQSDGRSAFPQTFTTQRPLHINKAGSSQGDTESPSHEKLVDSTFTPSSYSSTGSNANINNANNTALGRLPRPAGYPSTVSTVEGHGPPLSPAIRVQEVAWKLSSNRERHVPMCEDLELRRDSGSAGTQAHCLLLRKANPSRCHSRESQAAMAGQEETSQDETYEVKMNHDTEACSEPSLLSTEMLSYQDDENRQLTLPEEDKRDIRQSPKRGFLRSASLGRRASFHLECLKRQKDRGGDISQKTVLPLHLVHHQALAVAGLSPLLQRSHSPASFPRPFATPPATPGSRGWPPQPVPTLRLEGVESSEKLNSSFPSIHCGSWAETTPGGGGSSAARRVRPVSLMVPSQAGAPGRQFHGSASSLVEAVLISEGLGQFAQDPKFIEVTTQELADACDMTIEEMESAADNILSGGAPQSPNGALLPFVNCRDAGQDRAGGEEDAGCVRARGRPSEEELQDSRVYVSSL", "UniProt Q9NUW8, sequence (whole entry, looked up)": "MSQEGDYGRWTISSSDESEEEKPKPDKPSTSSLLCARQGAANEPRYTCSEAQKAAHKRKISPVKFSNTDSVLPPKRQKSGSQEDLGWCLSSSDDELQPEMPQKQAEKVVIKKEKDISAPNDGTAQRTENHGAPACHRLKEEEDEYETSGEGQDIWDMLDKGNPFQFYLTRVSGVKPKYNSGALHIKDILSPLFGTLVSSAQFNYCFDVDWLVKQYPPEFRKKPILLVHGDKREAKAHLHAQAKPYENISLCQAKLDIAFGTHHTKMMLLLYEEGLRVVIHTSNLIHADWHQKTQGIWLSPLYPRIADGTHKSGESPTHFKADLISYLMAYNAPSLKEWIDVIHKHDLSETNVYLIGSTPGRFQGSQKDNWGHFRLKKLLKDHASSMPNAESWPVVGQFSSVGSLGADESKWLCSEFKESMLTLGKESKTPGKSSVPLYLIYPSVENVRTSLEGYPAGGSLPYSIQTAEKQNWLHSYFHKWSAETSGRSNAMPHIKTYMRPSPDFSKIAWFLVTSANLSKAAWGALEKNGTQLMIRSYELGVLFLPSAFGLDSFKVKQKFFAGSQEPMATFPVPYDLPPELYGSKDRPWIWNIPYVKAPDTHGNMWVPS", "UniProt O00329, sequence (whole entry, looked up)": "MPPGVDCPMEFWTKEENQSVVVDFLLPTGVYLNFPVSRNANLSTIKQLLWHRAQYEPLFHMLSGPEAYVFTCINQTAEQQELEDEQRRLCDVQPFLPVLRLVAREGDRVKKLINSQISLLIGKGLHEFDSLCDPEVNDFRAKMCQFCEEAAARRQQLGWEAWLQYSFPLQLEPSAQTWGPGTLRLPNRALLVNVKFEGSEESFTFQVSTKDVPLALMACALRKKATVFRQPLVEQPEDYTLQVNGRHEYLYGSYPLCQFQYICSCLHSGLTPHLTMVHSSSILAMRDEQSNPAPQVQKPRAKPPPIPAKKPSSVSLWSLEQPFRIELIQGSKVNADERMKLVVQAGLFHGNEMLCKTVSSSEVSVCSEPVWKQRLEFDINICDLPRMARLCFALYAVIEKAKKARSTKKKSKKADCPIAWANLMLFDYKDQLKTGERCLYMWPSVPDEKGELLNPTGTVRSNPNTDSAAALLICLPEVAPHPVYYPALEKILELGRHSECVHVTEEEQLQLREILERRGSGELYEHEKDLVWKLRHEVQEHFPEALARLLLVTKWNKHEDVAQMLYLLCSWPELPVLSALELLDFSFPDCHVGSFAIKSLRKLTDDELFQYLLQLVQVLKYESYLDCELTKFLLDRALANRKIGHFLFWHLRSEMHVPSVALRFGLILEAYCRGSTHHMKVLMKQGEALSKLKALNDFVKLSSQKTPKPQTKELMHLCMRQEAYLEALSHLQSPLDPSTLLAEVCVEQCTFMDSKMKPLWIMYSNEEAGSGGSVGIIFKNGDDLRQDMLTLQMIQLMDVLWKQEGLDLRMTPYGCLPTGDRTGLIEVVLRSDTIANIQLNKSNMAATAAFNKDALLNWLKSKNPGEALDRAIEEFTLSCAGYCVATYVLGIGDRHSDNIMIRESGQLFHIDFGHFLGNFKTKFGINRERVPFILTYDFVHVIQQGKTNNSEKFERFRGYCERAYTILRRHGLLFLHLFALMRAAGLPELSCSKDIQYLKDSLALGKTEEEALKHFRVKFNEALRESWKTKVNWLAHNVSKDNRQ", "UniProt P09391, sequence (whole entry, looked up)": "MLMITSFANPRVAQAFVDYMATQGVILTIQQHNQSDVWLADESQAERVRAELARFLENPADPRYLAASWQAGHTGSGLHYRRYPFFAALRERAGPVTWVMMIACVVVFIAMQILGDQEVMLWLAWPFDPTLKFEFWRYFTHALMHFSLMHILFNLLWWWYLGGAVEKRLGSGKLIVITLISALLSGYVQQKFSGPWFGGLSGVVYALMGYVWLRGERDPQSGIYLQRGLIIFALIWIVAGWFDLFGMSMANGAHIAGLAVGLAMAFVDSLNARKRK"}
{"SMILES": "COc1ccc(OC)c(C2=Nn3c(nnc3C3CCCCC3)SC2)c1", "target": "ppa", "assay": "enzyme activity, inhibitor", "measurement": "IC50", "value": "550 µM"}
{"SMILES": "OC[C@@H]1[C@@H](O)[C@H](O)[C@@H](O)[C@H]2O[C@@H]12", "target": "Oligosaccharide 4-alpha-D-glucosyltransferase (agd31B, Cellvibrio japonicus, UniProt B3PEE6)", "assay": "enzyme activity, inhibitor", "conditions": "30 min preincubation, pH 6.5, 25 °C", "measurement": "IC50", "value": "> 100 µM"}
{"SMILES": "O=C(CSc1nnc(-c2ccco2)c(-c2ccco2)n1)c1cccs1", "target": "ppa", "assay": "inhibitor, counter-screen, coupling enzyme alone", "measurement": "IC50", "value": "37.8 µM"}
{"SMILES": "CCc1cc(NC)ncc1C(N)=O", "target": "NNMT", "assay": "enzyme activity in cells, inhibitor", "measurement": "IC50", "value": "0.398 µM"}
{"SMILES": "COc1cc(OC)c2nc(C3CC3)nc(N3CCN(c4ccccc4OC)CC3)c2c1", "target": "NTSR1", "assay": "G protein activation, antagonist", "measurement": "IC50", "value": "14.5 µM"}
{"SMILES": "C[C@@H](O)[C@H](NC(=O)[C@@H]1CSSC[C@H](NC(=O)[C@@H](Cc2ccccc2)NC(=O)CN2CCN(CC(=O)O)CCN(CC(=O)O)CCN(CC(=O)O)CC2)C(=O)N[C@@H](Cc2ccc(O)cc2)C(=O)N[C@H](Cc2c[nH]c3ccccc23)C(=O)N[C@@H](CCCCN)C(=O)N[C@@H]([C@@H](C)O)C(=O)N1)C(=O)O", "target": "Somatostatin receptor type 2 (Rattus norvegicus, UniProt P30680)", "assay": "ligand displacement", "measurement": "IC50", "value": "0.00346 µM"}
{"SMILES": "CN(C)c1ccc(CCC(=O)N2C(=O)C3(NC(c4ccc(F)cc4)C4(C(=O)Nc5ccccc54)N3Cc3ccc(F)cc3)c3ccccc32)cc1 (centres unmarked)", "target": "PIK3CD", "assay": "enzyme activity, inhibitor, ADP detection", "measurement": "IC50", "value": "0.273 µM"}
{"SMILES": "CN(C)c1nc(NCc2cc(Cl)c(F)cc2F)c(/N=N/c2ccc(Cl)cc2)c(N(C)C)n1", "target": "Chitinase (OfChi-h, Ostrinia furnacalis, UniProt Q4AE59)", "assay": "enzyme activity, inhibitor, fluorescence", "measurement": "IC50", "value": "0.32 µM"}
{"SMILES": "CCOc1cc(CN2CC3(CC(N4CCC(C(=O)O)CC4)=NO3)C2)cc(OCC)c1-c1ccc(F)cc1", "target": "SSTR5 (Homo sapiens, UniProt P35346, N187A)", "assay": "cAMP level, antagonist, GloSensor", "system": "AD293", "conditions": "N187A mutant, bandwidth 45.51, added: CST17 EC80 and forskolin", "measurement": "IC50", "value": "2.82 µM"}
{"SMILES": "Fc1ccc(Nc2nc(NC3CCCCC3)c3cc(Cl)ccc3n2)cc1F", "target": "ADRB2", "assay": "β-arrestin recruitment, antagonist", "measurement": "IC50", "value": "0.18 µM"}
{"SMILES": "COc1ccnc(C)c1C", "target": "NNMT", "assay": "enzyme activity in cells, inhibitor", "measurement": "IC50", "value": "> 31.6 µM"}
{"SMILES": "O=C(CSc1nnc(-c2ccco2)c(-c2ccco2)n1)c1ccc(Cl)s1", "target": "Uncharacterized protein", "assay": "enzyme activity, inhibitor, coupled colorimetric", "conditions": "added: E. coli pyrophosphatase coupling", "measurement": "IC50", "value": "91.1 µM"}
{"SMILES": "N[C@@H](Cc1c[nH]c2ccc(OCc3ccc(-c4ccoc4)cc3)cc12)C(=O)O", "target": "SLC7A5 (Homo sapiens, UniProt Q01650)", "assay": "transporter uptake, inhibitor, radiometric", "measurement": "IC50", "value": "25.6 µM"}
{"SMILES": "O=C(O)c1ccc(-c2ccc(O)cc2)c2c1C=C(c1ccc(O)cc1)OC2(c1ccc(O)cc1)c1ccc(O)cc1", "target": "PDE4D (Homo sapiens, UniProt Q08499)", "assay": "enzyme activity, inhibitor", "measurement": "IC50", "value": "0.049 µM"}
{"SMILES": "C=C(NC(=O)c1csc(-c2nc3c(cc2O)-c2nc(cs2)C(=O)NC(C(C)O)C(=O)NC(=C(C)OC)c2nc(cs2)C(=O)NC2c4nc(cs4)C(=O)NC(COC(=O)c4c5c6c(cccc6n4O)COC(=O)C(OC4CC(C)(O)C(N(C)C)C(C)O4)C2OC5)c2nc-3cs2)n1)C(N)=O (centres unmarked)", "target": "CYP2C19", "assay": "enzyme activity, inhibitor", "system": "human, liver microsomes", "conditions": "pH 7.4", "measurement": "IC50", "value": "> 50 µM"}
{"SMILES": "CCC1(O)CCCN(C(=O)c2ccc(-c3ccccc3C(F)(F)F)cc2)C1 (centres unmarked)", "target": "DNA dC->dU-editing enzyme APOBEC-3B (Homo sapiens, UniProt Q9UH17)", "assay": "ligand displacement, FP", "measurement": "IC50", "value": "1100 µM"}
{"SMILES": "COC(=O)Cc1cc2c(cc1C(=O)c1cccc(I)c1)OCO2", "target": "Gria1", "assay": "ion current, patch clamp", "measurement": "IC50", "value": "5.9 µM"}
{"SMILES": "Fc1ccc(Nc2nc(NC3CCCCC3)c3ccccc3n2)cc1F", "target": "ADRB2 (Homo sapiens, UniProt P07550, L155C)", "assay": "β-arrestin2 recruitment, antagonist, BRET", "system": "HEK293", "conditions": "mutant L155C, added: isoprenaline 1 µM", "measurement": "IC50", "value": "2 µM"}
{"SMILES": "Cc1nn(-c2cccc(N)c2)c(=O)c2cnc(Nc3ccc(N4CCNCC4)cc3)nc12", "target": "ZAP70 (Homo sapiens, UniProt P43403)", "assay": "enzyme activity, inhibitor", "measurement": "IC50", "value": "> 10 µM"}
{"SMILES": "O=C(O)c1ccc(Nc2c(-c3ccccc3)nc3ccc(CON=Cc4cccc(NC(=O)c5ccc(Cl)cc5)c4)cn23)cc1", "target": "TDP1", "assay": "enzyme activity, inhibitor", "conditions": "100 µM, unpurified compound", "measurement": "inhibition", "value": "0.2%"}
{"SMILES": "CC(=O)C1=C(C)Nc2ccccc2S1", "target": "ppa", "assay": "inhibitor, counter-screen, coupling enzyme alone", "measurement": "IC50", "value": "56.9 µM"}
{"SMILES": "Cc1nc(N(C)c2ccc3c(c2)/C(=C/c2ccccc2)C(=O)N3C)c2ccccc2n1", "target": "PIK3CD", "assay": "enzyme activity, inhibitor, ADP detection", "measurement": "IC50", "value": "0.547 µM"}
{"SMILES": "CC(C)(C)n1ncc2c(=O)n(Cc3cccc(F)c3)c(NCc3ccc(F)cn3)nc21", "target": "PDE7A (Homo sapiens, UniProt Q13946)", "assay": "enzyme activity, inhibitor", "measurement": "IC50", "value": "> 10 µM"}
{"SMILES": "O=C(CCNC(=O)CNC(=O)CC(c1ccccc1)(c1ccccc1)c1ccccc1)NC[C@@H]1CCCN(Cc2ccc(F)cc2)C1", "target": "CHRM3 (Homo sapiens, UniProt P20309)", "assay": "ligand displacement, radioligand", "conditions": "cell membranes", "measurement": "IC50", "value": "0.3 µM"}
{"SMILES": "Clc1ccc(C2=Nn3c(nnc3C3CCCCC3)SC2)cc1", "target": "Uncharacterized protein", "assay": "inhibitor, coupled colorimetric", "system": "Trypanosoma brucei", "measurement": "IC50", "value": "> 100 µM"}
{"SMILES": "CNc1cc(C)c(C(N)=O)cn1", "target": "NNMT", "assay": "enzyme activity in cells, inhibitor", "measurement": "IC50", "value": "0.0631 µM and < 0.1 µM"}
{"SMILES": "CC1C(=O)N(S(=O)(=O)c2ccccc2)C1c1ccccc1 (centres unmarked)", "target": "glpG", "assay": "enzyme activity, inhibitor", "measurement": "IC50", "value": "1 µM"}
{"SMILES": "C[N+]1(Cc2ccc3ccccc3c2)CCN(CCCN2c3ccccc3Sc3ccc(Cl)cc32)CC1", "target": "ppa", "assay": "inhibitor, counter-screen, coupling enzyme alone", "measurement": "IC50", "value": "54.6 µM"}
{"SMILES": "Cc1[nH]nc2c1N=C(c1ccccc1Cl)c1cnc(N3CCOCC3)cc1N2", "target": "CYP2C19", "assay": "enzyme activity, inhibitor", "system": "human, liver microsomes", "measurement": "IC50", "value": "> 10 µM"}
{"SMILES": "O=C(O)Cc1cc2c(cc1C(=O)c1cccc(Br)c1)OCO2", "target": "Gria1", "assay": "ion current, patch clamp", "measurement": "IC50", "value": "4.61 µM"}
{"SMILES": "Clc1cccc(CNc2nc(NC3CCCCC3)c3ccccc3n2)c1", "target": "ADRB2", "assay": "cAMP production, antagonist, GloSensor", "conditions": "added: isoproterenol 1 µM", "measurement": "IC50", "value": "25 ± 4 µM"}
{"SMILES": "Cc1cccc2c1NC(=O)C2(O)CC(=O)c1ccc2c(c1)OCO2 (centres unmarked)", "target": "Uncharacterized protein", "assay": "inhibitor, coupled colorimetric", "system": "Trypanosoma brucei", "measurement": "IC50", "value": "476 µM"}
{"SMILES": "O=C(Nc1ccc(OC(F)(F)F)cc1)N1CCC(Cc2cccc(Oc3ccc(C(F)(F)F)cn3)c2)CC1", "target": "MGLL (Homo sapiens, UniProt Q99685)", "assay": "enzyme activity, inhibitor, absorbance", "measurement": "IC50", "value": "> 10 µM"}
{"SMILES": "Fc1ccc(Nc2nc(NC3CCCCC3)c3cc(C(F)(F)F)ccc3n2)cc1F", "target": "ADRB2 (Homo sapiens, UniProt P07550, V126A)", "assay": "β-arrestin2 recruitment, antagonist, BRET", "system": "HEK293", "conditions": "mutant V126A, added: isoprenaline 1 µM", "measurement": "IC50", "value": "0.251 µM"}
{"SMILES": "COc1ccc2c(c1)CN(C(=O)CCN1CCC(Cc3ccccc3)CC1)CCS2", "target": "CACNA1C", "assay": "ion current, inhibitor, patch clamp", "measurement": "IC50", "value": "12.9 µM"}
{"SMILES": "CNc1sc(C(=O)c2ccc(OC)cc2)c(N)c1C#N", "target": "Uncharacterized protein", "assay": "enzyme activity, inhibitor, coupled colorimetric", "conditions": "added: E. coli pyrophosphatase coupling", "measurement": "IC50", "value": "109 µM"}
{"SMILES": "CC(C=NOCc1ccc2nc(-c3ccccc3)c(Nc3ccc(C(=O)O)cc3)n2c1)=Cc1cccc([N+](=O)[O-])c1O", "target": "TDP1", "assay": "enzyme activity, inhibitor", "conditions": "100 µM, unpurified compound", "measurement": "inhibition", "value": "76.7%"}
{"SMILES": "OC1CCCN(CCCNc2cc(-c3ccccc3)nc3ccnn23)C1 (centres unmarked)", "target": "DNA dC->dU-editing enzyme APOBEC-3B, C-terminal domain (Homo sapiens, UniProt Q9UH17)", "assay": "deaminase activity, inhibitor, UDG-coupled deamination", "measurement": "IC50", "value": "112 ± 6 µM"}
{"SMILES": "COc1ccccc1C1CCN(c2nc(C3(C(F)(F)F)CCCC3)nc3ccc(N(C)CCO)cc23)CC1", "target": "NTSR1", "assay": "G protein activation, antagonist, BRET", "measurement": "IC50", "value": "0.882 µM"}
{"SMILES": "COC(=O)C1=CNC=C(C(=O)OC)C1c1ccc(F)c(C(F)(F)F)c1", "target": "CACNA1C", "assay": "ion current, inhibitor, patch clamp", "conditions": "pH 7.4", "measurement": "IC50", "value": "13.9 µM"}
{"SMILES": "O=C1CC(c2ccc(Br)cc2)N1S(=O)(=O)c1cccc(Cl)c1 (centres unmarked)", "target": "glpG", "assay": "enzyme activity, inhibitor", "measurement": "IC50", "value": "≥ 100 µM"}
